Experimental data from different studies.
Parts stem from different laboratories: compare values within a part only.
Chain of UniProt P34972 (whole entry, looked up): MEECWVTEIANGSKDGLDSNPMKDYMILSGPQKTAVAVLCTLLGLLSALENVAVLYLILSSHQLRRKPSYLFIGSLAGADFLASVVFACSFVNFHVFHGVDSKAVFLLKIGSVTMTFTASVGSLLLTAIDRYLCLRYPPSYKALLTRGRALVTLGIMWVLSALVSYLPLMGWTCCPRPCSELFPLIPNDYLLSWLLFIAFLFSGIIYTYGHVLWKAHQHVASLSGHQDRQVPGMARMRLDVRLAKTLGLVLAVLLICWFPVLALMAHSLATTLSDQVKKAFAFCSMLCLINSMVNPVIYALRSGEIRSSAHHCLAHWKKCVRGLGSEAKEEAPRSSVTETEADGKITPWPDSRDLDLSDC
Chain of UniProt Q96P65 (whole entry, looked up): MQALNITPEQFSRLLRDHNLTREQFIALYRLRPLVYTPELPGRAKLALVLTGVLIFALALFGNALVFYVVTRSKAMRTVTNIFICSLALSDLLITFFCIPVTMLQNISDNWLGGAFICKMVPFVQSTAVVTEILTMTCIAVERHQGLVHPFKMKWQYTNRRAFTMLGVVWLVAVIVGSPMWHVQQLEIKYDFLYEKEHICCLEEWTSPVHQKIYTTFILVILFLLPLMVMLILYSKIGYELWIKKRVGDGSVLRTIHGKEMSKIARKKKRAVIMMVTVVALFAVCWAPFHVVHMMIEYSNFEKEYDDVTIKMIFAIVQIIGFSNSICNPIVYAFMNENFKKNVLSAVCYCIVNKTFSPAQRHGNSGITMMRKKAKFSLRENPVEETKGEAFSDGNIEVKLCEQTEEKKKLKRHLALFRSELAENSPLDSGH
Chain of UniProt Q9H1Y3 (whole entry, looked up): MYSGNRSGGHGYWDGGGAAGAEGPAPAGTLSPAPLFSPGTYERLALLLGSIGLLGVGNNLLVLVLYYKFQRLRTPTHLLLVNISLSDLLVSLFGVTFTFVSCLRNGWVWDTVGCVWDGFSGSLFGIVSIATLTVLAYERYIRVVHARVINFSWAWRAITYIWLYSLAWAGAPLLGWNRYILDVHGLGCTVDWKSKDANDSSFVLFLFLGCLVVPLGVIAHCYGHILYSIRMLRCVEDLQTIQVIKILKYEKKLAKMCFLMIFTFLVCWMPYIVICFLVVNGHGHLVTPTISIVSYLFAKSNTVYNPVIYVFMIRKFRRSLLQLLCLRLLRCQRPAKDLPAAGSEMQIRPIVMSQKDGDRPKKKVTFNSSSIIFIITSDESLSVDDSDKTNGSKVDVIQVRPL
Chain of UniProt P49841 (whole entry, looked up): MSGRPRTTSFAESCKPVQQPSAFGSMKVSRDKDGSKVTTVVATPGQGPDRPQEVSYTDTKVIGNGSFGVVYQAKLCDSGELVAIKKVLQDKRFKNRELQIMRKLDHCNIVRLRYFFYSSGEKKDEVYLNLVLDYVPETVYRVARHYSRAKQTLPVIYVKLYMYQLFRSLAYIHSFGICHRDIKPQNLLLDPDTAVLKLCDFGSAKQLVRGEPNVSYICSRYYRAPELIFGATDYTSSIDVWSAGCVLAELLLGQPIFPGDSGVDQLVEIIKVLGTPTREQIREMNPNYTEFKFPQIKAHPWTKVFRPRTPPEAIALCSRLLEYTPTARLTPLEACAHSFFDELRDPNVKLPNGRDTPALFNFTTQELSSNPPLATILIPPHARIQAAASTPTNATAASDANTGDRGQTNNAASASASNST
Chain of UniProt Q99640 (whole entry, looked up): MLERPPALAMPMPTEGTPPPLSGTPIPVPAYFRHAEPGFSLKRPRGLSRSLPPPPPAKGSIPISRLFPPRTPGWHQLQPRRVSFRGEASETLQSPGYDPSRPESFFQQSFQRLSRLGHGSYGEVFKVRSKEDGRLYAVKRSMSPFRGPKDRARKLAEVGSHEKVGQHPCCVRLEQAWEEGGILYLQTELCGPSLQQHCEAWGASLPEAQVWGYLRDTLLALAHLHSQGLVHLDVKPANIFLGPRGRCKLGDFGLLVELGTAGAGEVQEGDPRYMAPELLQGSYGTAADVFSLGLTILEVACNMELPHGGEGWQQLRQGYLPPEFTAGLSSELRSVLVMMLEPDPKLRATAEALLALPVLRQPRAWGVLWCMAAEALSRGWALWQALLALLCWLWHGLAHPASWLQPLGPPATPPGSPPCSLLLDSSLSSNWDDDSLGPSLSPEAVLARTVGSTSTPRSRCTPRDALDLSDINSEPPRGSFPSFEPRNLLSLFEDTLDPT
Chain of UniProt Q9GZQ6 (whole entry, looked up): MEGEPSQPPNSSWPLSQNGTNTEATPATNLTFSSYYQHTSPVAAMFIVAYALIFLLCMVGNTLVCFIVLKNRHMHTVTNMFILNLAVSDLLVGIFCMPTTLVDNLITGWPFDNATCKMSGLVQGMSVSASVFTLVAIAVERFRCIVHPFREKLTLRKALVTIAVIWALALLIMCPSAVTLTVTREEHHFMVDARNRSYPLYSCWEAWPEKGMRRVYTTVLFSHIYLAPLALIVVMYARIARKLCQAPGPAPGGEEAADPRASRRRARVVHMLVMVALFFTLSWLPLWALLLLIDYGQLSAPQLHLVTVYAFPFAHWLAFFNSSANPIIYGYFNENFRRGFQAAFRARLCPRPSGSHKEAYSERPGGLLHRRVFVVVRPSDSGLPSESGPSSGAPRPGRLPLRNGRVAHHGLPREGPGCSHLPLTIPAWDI
Chain of UniProt P15735 (whole entry, looked up): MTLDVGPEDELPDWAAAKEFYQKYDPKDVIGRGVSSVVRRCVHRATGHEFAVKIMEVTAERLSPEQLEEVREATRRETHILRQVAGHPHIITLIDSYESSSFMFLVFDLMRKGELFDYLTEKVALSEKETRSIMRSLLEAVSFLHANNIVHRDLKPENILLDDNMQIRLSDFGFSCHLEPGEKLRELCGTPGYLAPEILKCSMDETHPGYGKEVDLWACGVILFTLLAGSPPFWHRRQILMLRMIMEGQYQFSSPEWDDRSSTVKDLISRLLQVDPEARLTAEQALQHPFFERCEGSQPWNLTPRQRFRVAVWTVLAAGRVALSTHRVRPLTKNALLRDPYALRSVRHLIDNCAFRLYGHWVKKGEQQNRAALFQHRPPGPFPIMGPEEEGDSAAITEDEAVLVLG
Chain of UniProt Q96G91 (whole entry, looked up): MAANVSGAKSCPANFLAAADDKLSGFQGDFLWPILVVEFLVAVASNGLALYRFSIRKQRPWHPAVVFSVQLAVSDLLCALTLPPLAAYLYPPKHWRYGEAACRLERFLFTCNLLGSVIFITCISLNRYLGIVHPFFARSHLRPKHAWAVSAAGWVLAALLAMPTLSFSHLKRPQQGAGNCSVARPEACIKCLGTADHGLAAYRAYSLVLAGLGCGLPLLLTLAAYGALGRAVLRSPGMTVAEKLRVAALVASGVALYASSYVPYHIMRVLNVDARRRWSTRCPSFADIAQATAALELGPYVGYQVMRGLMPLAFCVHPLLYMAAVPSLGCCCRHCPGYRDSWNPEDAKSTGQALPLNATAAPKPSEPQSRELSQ
Chain of UniProt Q14004 (whole entry, looked up): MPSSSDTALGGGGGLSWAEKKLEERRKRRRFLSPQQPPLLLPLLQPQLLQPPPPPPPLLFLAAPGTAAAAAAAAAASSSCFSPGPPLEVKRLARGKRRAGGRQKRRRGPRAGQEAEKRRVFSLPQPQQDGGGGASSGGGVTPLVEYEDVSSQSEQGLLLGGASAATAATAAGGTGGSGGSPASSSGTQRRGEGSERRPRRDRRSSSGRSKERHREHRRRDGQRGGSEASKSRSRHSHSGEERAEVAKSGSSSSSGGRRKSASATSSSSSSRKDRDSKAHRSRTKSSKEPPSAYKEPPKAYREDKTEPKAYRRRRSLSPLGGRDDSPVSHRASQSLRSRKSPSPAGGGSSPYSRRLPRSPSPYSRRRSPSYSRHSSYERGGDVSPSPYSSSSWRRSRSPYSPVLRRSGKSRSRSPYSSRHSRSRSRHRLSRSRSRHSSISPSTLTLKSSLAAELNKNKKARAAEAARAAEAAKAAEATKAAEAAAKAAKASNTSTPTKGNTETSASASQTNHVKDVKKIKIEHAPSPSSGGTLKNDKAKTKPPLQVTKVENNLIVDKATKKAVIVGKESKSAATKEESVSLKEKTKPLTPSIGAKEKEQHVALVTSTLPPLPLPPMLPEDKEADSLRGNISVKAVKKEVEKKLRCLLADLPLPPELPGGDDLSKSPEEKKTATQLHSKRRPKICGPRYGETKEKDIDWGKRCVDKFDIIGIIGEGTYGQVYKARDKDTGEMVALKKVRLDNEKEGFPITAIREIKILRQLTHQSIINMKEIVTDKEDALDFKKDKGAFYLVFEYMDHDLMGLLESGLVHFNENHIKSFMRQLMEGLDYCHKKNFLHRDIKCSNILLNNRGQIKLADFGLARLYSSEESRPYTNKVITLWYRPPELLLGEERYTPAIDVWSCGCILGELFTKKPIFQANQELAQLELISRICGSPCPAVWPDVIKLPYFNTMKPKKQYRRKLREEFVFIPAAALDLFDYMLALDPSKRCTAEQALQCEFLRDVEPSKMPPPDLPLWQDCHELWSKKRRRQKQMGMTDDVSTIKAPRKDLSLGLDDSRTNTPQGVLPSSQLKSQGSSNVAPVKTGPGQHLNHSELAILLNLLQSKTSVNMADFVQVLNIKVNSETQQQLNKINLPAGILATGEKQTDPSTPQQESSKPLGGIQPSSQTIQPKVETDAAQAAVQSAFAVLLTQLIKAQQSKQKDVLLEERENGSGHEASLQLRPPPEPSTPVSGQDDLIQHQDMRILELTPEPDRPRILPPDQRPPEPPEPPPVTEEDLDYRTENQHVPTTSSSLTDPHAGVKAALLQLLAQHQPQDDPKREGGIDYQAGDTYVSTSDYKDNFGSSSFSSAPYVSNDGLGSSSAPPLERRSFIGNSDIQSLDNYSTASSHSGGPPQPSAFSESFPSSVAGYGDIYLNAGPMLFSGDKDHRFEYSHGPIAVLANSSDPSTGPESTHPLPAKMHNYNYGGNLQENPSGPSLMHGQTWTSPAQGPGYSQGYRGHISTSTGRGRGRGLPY

Block 1 — organism: Sarcocystis neurona; observed: parasite growth; tested at: 10 µM; endpoint: inhibition
CN(C)CCC=C1c2ccccc2COc2ccccc21: -23.8%
CC(C(=O)O)c1ccc(-c2ccccc2)c(F)c1 (stereo not drawn): 3.6%
CC(C)(C)NC[C@H](O)COc1nsnc1N1CCOCC1: -31.6%
C[N+]1(C)CCC(OC(=O)C(O)(c2ccccc2)C2CCCC2)C1.[Br-] (stereo not drawn): 2%
Cc1onc(-c2c(Cl)cccc2Cl)c1C(=O)N[C@@H]1C(=O)N2[C@@H]1SC(C)(C)[C@@H]2C(=O)O: -25.8%
CCc1cccc2c3c([nH]c12)C(CC)(CC(=O)O)OCC3 (stereo not drawn): -32.4%
COC1=C(OC)C(=O)C(CCCCCCCCCCO)=C(C)C1=O: -26%
COc1cc(NC(C)CCCN)c2ncccc2c1 (stereo not drawn): 98.7%

Block 2 — SMILES: CCN(c1nc(N)c(C(=O)N=C(N)N)nc1Cl)C(C)C; observed: β-arrestin recruitment; action: agonist; technique: PRESTO-Tango; tested at: 10 µM; relative to: untreated; endpoint: fold over basal
CNR2 (Homo sapiens, UniProt P34972): 1.24
LPAR1 (Homo sapiens, UniProt Q92633): 0.88
NPFFR1 (Homo sapiens, UniProt Q9GZQ6): 1.18
Adhesion G-protein coupled receptor G5 (ADGRG5, Homo sapiens, UniProt Q8IZF4): 0.97
Opsin-3 (OPN3, Homo sapiens, UniProt Q9H1Y3): 1.09
P2Y purinoceptor 11 (P2RY11, Homo sapiens, UniProt Q96G91): 1.16
QRFPR (Homo sapiens, UniProt Q96P65): 0.79

Block 3 — tested at: 1 µM; endpoint: remaining binding
Structure (SMILES): O=C(O)[C@@H]1[C@@H](Cn2nnc3ccccc3c2=O)CC[C@H]1C(=O)c1ccc(OCCC2CCOCC2)cc1
PHKG2 (Homo sapiens, UniProt P15735); cell-free assay, competition with immobilised ligand: 100%
CDC42BPG (Homo sapiens, UniProt Q6DT37); competition binding: 100%
MAPKAPK2 (Homo sapiens, UniProt P49137); cell-free assay, competition with immobilised ligand: 100%
RIOK3 (Homo sapiens, UniProt O14730); cell-free assay, competition with immobilised ligand: 100%
CDK13 (Homo sapiens, UniProt Q14004); cell-free assay, competition with immobilised ligand: 92%
GSK3B (Homo sapiens, UniProt P49841); cell-free assay, competition with immobilised ligand: 100%
Tyrosine-protein kinase ABL1, phosphorylated (ABL1, Homo sapiens, UniProt P00519, Q252H); cell-free assay, competition with immobilised ligand: 92%
PKMYT1 (Homo sapiens, UniProt Q99640); cell-free assay, competition with immobilised ligand: 82%

Block 4 — technique: PRP chromatography; notes: linear fit, 1 mL; endpoint: logD 1,9-decadiene/water
CC(C)C[C@@H]1NC(=O)[C@@H](C)NC(=O)[C@H](CCC(=O)N2CCCC2)NC(=O)[C@@H](C(C)C)NC(=O)[C@H](C(C)C)NC(=O)[C@H](CC(C)C)NC(=O)[C@@H](CC(C)C)NC1=O: -0.358 log units
CC(C)C[C@@H]1NC(=O)[C@H](CC(C)C)NC(=O)[C@@H](CC(C)C)NC(=O)[C@H](C(C)C)NC(=O)[C@H](C)NC(=O)[C@@H](CC(C)C)NC(=O)[C@H](C)NC1=O: -0.77 log units
CC(C)C[C@@H]1NC(=O)[C@H](CC(C)C)NC(=O)[C@@H](CC(C)C)NC(=O)[C@@H](C(C)C)NC(=O)[C@H](C)NC(=O)[C@H](CC(C)C)NC(=O)[C@@H](CC(C)C)NC1=O: 1.36 log units
CC(C)C[C@@H]1NC(=O)[C@H](CC(C)C)NC(=O)[C@@H](CC(C)C)NC(=O)[C@H](CC(C)C)NC(=O)[C@@H](Cc2cscn2)NC(=O)[C@@H](CC(C)C)NC(=O)[C@H](C)NC1=O: 0.196 log units
CC(C)C[C@@H]1NC(=O)[C@H](C)NC(=O)[C@@H](Cc2cscn2)NC(=O)[C@@H](CC(C)C)NC(=O)[C@H](C)NC(=O)[C@H](CC(C)C)NC(=O)[C@H](CC(C)C)NC1=O: -1.68 log units
CC(C)C[C@@H]1NC(=O)[C@H](CCC(=O)N2CCCC2)NC(=O)[C@H](CCC(=O)N2CCCC2)NC(=O)[C@@H](Cc2cscn2)NC(=O)[C@H](CC(C)C)NC(=O)[C@@H](CC(C)C)NC(=O)[C@H](CC(C)C)NC1=O: -1.21 log units

Block 5 — observed: enzyme activity; action: inhibitor; tested at: 0.5 µM; relative to: control; endpoint: remaining activity
Target: Cyclin-dependent kinase 2, with cyclin A (CDK2, Homo sapiens, UniProt P24941)
NC(=O)c1cccc(-c2cc(Nc3ccc(OC(F)(F)F)cc3)ncn2)c1: 96.5%
COc1cccc(-c2cc(=O)c3ccccc3o2)c1N: 102%
CC(C)N(CCC(=O)c1ccc2ccccc2c1)Cc1ccccc1: 109%
c1cc(-c2cnn3cc(-c4ccc(OCCN5CCCCC5)cc4)cnc23)ccn1: 87.7%
O=C1Nc2ccc(Br)cc2/C1=C/c1cc2c([nH]1)CCCC2: 90.8%
c1ccc(-c2n[nH]c3c2oc2ccccc23)cc1: 88.1%
O=C(c1ccccc1)c1ccc(N2CCOCC2)cc1O: 99.3%
CC(C)n1cnc2c(Nc3cccc(Cl)c3)nc(NCCO)nc21: 42%
O=C1c2ccccc2-c2nc3nnnn3nc21: 70.3%
CNc1cc2c(Nc3cccc(Br)c3)ncnc2cn1: 106%
Oc1cccc(-c2nc(N3CCOCC3)c3oc4ncccc4c3n2)c1: 104%
O=C1NC(=O)c2c1c1c3ccccc3[nH]c1c1[nH]c3cc(Br)ccc3c21: 52.5%
CCCCc1c(-c2ccc(O)cc2)[nH]c2nccnc12: 22.4%
O=C1Nc2ccccc2/C1=C\c1c(Cl)[nH]c2ccccc12: 91.5%
FC(F)(F)c1ccc(/C=C/c2nc(COc3ccc(CCCCn4ccnn4)cc3)co2)cc1: 87.9%
C[C@@H](N)[C@H]1CC[C@H](C(=O)Nc2ccncc2)CC1: 93.2%
c1ccc2c(-c3ccncc3)c[nH]c2c1: 99.7%
Clc1ccc(Nc2nnc(Cc3ccncc3)c3ccccc23)cc1: 87.7%
COc1ccc2c(c1)c(C1=C(c3c[nH]c4ccccc34)C(=O)NC1=O)cn2CCCN(C)C: 112%
COc1cc2c(N3CCN(C(=O)Nc4ccc(OC(C)C)cc4)CC3)ncnc2cc1OCCCN1CCCCC1: 93.3%
N#Cc1cnc2cnc(NCc3cccnc3)cc2c1Nc1ccc(F)c(Cl)c1: 75.1%
O=C(c1cc2cc(O)ccc2[nH]1)c1cc2cc(O)ccc2[nH]1: 61.5%
CC(C)(C)c1nc2c3cc[nH]c(=O)c3c3cc(F)ccc3c2[nH]1: 86.2%
NC(=O)c1ccc(-c2nc(-c3ccc4c(c3)OCCO4)c(-c3ccccn3)[nH]2)cc1: 95%
O=c1cc(N2CCOCC2)oc2c(-c3ccccc3)cccc12: 106%

For quick reference, copied from above (block 3):
MAPKAPK2 (Homo sapiens, UniProt P49137); cell-free assay, competition with immobilised ligand: 100%
RIOK3 (Homo sapiens, UniProt O14730); cell-free assay, competition with immobilised ligand: 100%
CDK13 (Homo sapiens, UniProt Q14004); cell-free assay, competition with immobilised ligand: 92%
GSK3B (Homo sapiens, UniProt P49841); cell-free assay, competition with immobilised ligand: 100%
Tyrosine-protein kinase ABL1, phosphorylated (ABL1, Homo sapiens, UniProt P00519, Q252H); cell-free assay, competition with immobilised ligand: 92%
